Experimental data collected from several papers.
Protocols differ between the studies behind these lines. “And” joins repeats or separate records; there may be more than shown. ± marks the error that the study gave.
MAOA: Amine oxidase [flavin-containing] A (MAOA, Homo sapiens, UniProt P21397)
Sequence of UniProt P21397 (whole entry, looked up): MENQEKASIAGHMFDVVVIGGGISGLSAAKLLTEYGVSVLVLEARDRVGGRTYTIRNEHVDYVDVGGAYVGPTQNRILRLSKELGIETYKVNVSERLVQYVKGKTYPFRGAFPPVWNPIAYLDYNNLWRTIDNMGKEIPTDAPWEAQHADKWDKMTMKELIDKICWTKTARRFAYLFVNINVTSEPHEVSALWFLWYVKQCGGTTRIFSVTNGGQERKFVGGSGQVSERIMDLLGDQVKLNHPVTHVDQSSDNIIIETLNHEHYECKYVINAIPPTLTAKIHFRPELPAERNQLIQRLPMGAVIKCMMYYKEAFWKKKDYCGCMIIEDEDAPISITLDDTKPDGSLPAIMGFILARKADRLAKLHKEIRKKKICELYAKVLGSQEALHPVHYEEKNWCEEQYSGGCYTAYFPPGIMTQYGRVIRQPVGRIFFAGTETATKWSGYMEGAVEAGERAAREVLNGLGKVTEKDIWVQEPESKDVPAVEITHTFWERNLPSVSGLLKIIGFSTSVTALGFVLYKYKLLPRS
Sequence of UniProt P07687 (whole entry, looked up): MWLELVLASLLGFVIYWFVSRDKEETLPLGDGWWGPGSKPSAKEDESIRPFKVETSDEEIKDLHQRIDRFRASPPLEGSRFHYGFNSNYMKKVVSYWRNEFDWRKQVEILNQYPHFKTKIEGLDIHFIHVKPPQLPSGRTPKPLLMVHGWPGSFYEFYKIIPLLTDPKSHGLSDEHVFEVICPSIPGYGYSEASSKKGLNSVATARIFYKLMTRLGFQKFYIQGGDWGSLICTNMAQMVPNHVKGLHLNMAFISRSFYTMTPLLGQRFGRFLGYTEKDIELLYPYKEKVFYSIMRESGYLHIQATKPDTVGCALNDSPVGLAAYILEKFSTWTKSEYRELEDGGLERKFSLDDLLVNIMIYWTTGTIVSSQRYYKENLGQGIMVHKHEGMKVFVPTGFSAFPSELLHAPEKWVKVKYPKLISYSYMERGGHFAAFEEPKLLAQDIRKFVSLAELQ
Sequence of UniProt P01024 (whole entry, unmodified, looked up): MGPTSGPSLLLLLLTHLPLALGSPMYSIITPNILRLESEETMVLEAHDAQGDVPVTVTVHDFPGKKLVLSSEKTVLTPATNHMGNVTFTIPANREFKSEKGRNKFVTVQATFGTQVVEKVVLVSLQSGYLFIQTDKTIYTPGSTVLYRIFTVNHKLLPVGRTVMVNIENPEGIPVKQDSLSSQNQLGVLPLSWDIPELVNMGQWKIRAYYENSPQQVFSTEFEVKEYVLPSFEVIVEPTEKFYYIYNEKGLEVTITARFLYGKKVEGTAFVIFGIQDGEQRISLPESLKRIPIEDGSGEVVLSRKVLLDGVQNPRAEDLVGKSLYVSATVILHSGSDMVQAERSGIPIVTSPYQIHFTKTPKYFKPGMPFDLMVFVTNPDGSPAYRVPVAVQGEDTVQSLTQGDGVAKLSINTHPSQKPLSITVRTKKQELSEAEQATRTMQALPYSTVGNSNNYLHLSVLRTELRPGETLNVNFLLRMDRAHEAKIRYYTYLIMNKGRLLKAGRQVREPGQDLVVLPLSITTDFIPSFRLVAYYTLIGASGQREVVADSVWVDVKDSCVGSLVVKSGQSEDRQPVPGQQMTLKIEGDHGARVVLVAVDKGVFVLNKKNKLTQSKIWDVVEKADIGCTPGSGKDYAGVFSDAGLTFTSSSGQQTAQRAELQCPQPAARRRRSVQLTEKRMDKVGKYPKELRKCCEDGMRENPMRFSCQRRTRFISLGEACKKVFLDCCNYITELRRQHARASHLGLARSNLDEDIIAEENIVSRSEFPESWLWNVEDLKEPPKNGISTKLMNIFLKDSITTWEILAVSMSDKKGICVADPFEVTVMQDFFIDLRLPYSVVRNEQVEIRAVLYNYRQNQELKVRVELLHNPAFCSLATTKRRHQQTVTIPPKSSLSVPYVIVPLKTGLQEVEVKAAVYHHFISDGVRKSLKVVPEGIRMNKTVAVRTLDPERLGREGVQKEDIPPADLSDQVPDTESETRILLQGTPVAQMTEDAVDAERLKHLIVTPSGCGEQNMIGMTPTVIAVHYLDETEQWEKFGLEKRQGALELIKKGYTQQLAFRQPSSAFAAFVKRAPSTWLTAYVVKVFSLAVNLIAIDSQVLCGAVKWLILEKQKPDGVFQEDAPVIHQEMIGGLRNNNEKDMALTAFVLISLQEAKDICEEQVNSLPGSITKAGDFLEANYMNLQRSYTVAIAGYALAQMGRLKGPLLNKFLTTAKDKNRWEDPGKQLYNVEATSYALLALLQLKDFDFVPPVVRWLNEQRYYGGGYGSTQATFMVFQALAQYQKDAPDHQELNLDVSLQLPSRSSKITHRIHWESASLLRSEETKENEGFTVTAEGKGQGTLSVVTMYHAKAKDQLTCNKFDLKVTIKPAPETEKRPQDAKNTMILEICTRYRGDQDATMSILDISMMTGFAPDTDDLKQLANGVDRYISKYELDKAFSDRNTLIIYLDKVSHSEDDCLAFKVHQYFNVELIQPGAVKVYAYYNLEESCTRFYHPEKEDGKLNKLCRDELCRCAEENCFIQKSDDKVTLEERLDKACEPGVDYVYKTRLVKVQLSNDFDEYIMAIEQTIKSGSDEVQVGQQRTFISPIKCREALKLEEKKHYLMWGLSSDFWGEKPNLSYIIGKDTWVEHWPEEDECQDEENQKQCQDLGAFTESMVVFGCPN
Sequence of UniProt Q9BY41 (whole entry, looked up): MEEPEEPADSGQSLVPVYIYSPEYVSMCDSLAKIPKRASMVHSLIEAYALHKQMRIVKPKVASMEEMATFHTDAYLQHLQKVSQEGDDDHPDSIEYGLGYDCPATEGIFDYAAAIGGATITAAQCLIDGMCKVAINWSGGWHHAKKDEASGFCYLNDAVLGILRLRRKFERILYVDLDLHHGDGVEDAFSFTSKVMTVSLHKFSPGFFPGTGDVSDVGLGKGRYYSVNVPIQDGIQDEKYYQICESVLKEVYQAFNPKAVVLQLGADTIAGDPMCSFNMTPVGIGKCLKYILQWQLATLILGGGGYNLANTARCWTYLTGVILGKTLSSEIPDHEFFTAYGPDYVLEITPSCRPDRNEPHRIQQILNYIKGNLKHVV
Sequence of UniProt P41595 (whole entry, looked up): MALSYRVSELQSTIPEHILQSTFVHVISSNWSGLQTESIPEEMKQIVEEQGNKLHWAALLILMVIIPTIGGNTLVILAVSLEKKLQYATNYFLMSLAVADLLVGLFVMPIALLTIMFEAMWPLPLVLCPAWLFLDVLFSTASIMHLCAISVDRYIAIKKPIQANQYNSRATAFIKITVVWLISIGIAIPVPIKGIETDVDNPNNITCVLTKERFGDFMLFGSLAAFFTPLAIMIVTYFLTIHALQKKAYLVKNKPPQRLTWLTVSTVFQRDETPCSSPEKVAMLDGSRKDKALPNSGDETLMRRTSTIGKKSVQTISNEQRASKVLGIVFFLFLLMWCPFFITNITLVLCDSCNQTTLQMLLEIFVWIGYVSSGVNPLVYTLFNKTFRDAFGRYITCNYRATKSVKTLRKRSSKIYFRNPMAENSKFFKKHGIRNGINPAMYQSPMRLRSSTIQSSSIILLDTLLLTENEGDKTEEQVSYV
Sequence of UniProt Q9Y294 (whole entry, unmodified, looked up): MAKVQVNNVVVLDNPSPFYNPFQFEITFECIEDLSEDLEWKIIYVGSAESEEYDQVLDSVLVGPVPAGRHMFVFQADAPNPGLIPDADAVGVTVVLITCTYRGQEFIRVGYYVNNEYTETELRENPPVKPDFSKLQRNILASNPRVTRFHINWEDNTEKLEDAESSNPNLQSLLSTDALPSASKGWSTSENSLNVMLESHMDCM
Sequence of UniProt P10636 (whole entry, looked up): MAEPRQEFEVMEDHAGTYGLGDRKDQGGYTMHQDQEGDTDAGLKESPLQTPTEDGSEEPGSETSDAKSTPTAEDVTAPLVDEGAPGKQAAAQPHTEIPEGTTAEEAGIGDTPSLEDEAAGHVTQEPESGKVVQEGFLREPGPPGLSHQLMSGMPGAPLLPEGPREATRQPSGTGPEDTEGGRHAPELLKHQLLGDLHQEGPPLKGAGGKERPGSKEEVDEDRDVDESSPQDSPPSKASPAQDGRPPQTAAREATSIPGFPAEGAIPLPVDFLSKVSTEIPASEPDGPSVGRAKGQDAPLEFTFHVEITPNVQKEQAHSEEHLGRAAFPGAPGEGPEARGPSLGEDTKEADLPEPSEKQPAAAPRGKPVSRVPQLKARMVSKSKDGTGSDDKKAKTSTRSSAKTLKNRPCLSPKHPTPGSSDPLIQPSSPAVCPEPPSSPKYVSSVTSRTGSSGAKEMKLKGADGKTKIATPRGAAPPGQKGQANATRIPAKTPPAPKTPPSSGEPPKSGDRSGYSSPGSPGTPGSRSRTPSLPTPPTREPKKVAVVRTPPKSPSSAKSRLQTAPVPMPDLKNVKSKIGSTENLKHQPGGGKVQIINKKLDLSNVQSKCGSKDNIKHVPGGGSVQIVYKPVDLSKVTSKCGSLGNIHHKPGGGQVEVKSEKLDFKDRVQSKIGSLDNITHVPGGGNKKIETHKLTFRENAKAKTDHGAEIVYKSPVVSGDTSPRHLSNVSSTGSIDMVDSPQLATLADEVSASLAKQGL

SMILES	target	assay	system	conditions	scale	quantity	value
Cc1cc(O)c2c(c1)C(=O)c1cc(O)c(O)c(O)c1C2=O	MAOA	inhibitor, Lineweaver-Burk secondary plot	–	uncompetitive component	–	Kiu	9.33 µM
O=C(CCC1CO1)Oc1ccc([N+](=O)[O-])cc1 (racemic)	Epoxide hydrolase 1 (Ephx1, Rattus norvegicus, UniProt P07687)	substrate, absorbance	–	50 µM, pH 9.0, 37 °C, rat enzyme	–	signal to background ratio	2 and 3
O=C(CCCCCCS)Nc1ccccc1	HDAC8 (Homo sapiens, UniProt Q9BY41)	isothermal titration calorimetry	–	concentration not given, pH 7.5	–	intrinsic binding enthalpy	-0.06 ± 0.1 kcal/mol
OC(Cc1cc(-c2ccc(C(O)C(F)(F)F)s2)sc1-c1ccc(-c2sc(-c3ccc(C(O)C(F)(F)F)s3)cc2CC(O)C(F)(F)F)s1)C(F)(F)F (centres unmarked)	Microtubule-associated protein tau, 0N4R isoform, aggregated (MAPT, Homo sapiens, UniProt P10636)	binding, fluorescence	30% sucrose tau fraction	–	baseline: 30% over 20% fraction	Kd ratio	49
CC[C@H](C)[C@H](NC(=O)[C@@H]1CSSC[C@H](NC(=O)[C@@H](NC(C)=O)[C@@H](C)CC)C(=O)N[C@@H](C(C)C)C(=O)N[C@@H](Cc2cn(C)c3ccccc23)C(=O)N[C@@H](CCC(N)=O)C(=O)N[C@@H](CC(=O)O)C(=O)N[C@@H](Cc2c[nH]c3ccccc23)C(=O)NCC(=O)N[C@@H](C)C(=O)N[C@@H](Cc2c[nH]cn2)C(=O)N[C@@H](CCCNC(=N)N)C(=O)N1)C(N)=O	Complement C3 (Homo sapiens, UniProt P01024)	ITC	PBS	concentration not given, pH 7.4, 25 °C	–	ΔH of binding	-16.6 kcal/mol
[N-]=[N+]=N[C@H]1[C@H](O)[C@@H](O)[C@H](n2cc(CO[C@@H]3O[C@H](CO)[C@H](O)[C@H](O)[C@H]3O)nn2)O[C@@H]1CO	lecA (Pseudomonas aeruginosa, UniProt Q05097)	isothermal titration calorimetry	–	298 K	–	-TΔS	4.5 ± 0.9 kcal/mol
O=C1c2ccc(O)cc2OC(c2ccc(O)cc2)C1C1C(=O)c2ccc(O)cc2OC1c1ccc(O)cc1 (centres unmarked)	laccase (Trametes versicolor)	substrate	–	product formation	–	Km	4.81 ± 0.373 mM
OC(c1cccc(C2=CCCNC2)n1)C(F)(F)F (centres unmarked)	HTR2B (Homo sapiens, UniProt P41595)	β-arrestin recruitment, agonist	–	–	–	Emax	71.1%
Cc1ccc2c(c1)/C(=N/N=C/c1ccc(OCc3ccccc3)cc1)C(=O)N2	MAOA	enzyme activity, inhibitor	–	10 µM	–	remaining activity	89.8%
CC[C@H](C)[C@H](NC(=O)[C@H](CCCNC(=N)N)NC(=O)[C@H](CCCNC(=N)N)NC(=O)[C@H](C)NC(=O)[C@H](CC(C)C)NC(=O)[C@H](CCCNC(=N)N)NC(=O)[C@H](C)NC(=O)[C@H](Cc1c[nH]c2ccccc12)NC(=O)[C@H](CCCCN)NC(=O)[C@H](CCC(=O)O)NC(C)=O)C(=O)N[C@@H](C)C(N)=O	Histone chaperone ASF1A (Homo sapiens, UniProt Q9Y294)	isothermal titration calorimetry	–	pH 7.5, 20 °C	–	-TΔS	2.2 ± 0.9 kcal/mol
CC1CC2(N=CCS2)C2(O)OC3CC4(C)C(CC3OC2O1)CC1OC12C4C(O)C(=O)C1(C)C(C3=CC(=O)OC3)CCC12O (centres unmarked)	Na+/K+-ATPase, Oncopeltus fasciatus	inhibitor	–	–	baseline: compound over ouabain	relative potency	13
